# Measurements pooled from the literature.
# Lines come from different studies, so protocols differ. ± marks the error that the study gave.
# Cell line: HepG2
SMILES,read-out,technique,time,IC50
c1cc2c(s1)CCOC21CCN(Cc2ccc3c(c2)OCCO3)CC1,cell growth or viability,ATP luminescence,48 h,> 50 µM
O=C1CC2(C1)C(=O)[O][Pt]1([Cl])([O]C(=O)C(Cl)Cl)([NH][C@@H]3CCCC[C@H]3[NH]1)[O]C2=O,cell growth or viability,MTT,,1.35 µM
CO[C@H]1[C@@H](O)[C@H](n2ccc(=O)[nH]c2=O)O[C@@H]1[C@@H](O[C@H]1OC(C(=O)N[C@H]2N=C(c3ccccc3)c3ccccc3NC2=O)=C[C@H](O)[C@@H]1O)C(N)=O,cell growth or viability,MTT,,> 400 µg/mL
CNC(=O)c1cc(Oc2ccc(NC(=O)c3cc(-c4cccc(OC(=O)CCC(=O)OC5OC6OC7(C)CCC8C(C)CCC(C5C)C68OO7)c4)ccn3)cc2)ccn1 (centres unmarked),cell growth or viability,MTT,72 h,12.3 µM
CCCCCCCCCCCCCCC(=O)O.O=C1CCCC2C3CCCN4CCCC(CN12)C34 (centres unmarked),cell growth or viability,MTT,24 h,150 µM
CC[C@@]1(O)C(=O)OCc2c1cc1n(c2=O)Cc2cc3cc(OC(=O)CCCC(=O)NCC(=O)N[C@@H](Cc4ccccc4)C(=O)N[C@@H](Cc4ccccc4)C(=O)N[C@@H](Cc4ccc(O)cc4)C(=O)NCCS)ccc3nc2-1,cell growth or viability,MTT,,0.423 µM
CNC(=O)CC[C@@H](NC(=O)[C@@H](Cc1ccc(OP(=O)(O)O)cc1)NC(=O)[C@@H](Cc1ccccc1)NC(=O)[C@@H](Cc1ccccc1)NC(=O)Cc1ccc2ccccc2c1)C(=O)NC,cell growth or viability,MTT,,111 µM
O=C(NC12CC3CC(CC(C3)C1)C2)c1cc2cc(Cl)ccc2[nH]1,cell growth or viability,ATP luminescence,48 h,> 50 µM
CCOc1cccc2c1[O][Pt-2]1([Cl])[N+](=C2)Cc2cccc[n+]21 (centres unmarked),cell viability,MTT,48 h,6.99 ± 1.74 µM
O=C(NCc1ccco1)C1CCN(S(=O)(=O)c2ccc(Cl)cc2)CC1,cell growth or viability,MTT,,0.84 µM
CCCCCCCCCCCCCC(=O)N[C@H](CCN)C(=O)N[C@@H]1C(=O)N[C@@H](CCN)C(=O)N[C@@H](CC(C)C)C(=O)N[C@@H](CCN)C(=O)N[C@H](Cc2ccccc2)C(=O)N[C@@H](CC(C)C)C(=O)N[C@@H](CCN)C(=O)N[C@H](CCN)C(=O)N[C@@H](C(C)C)C(=O)N[C@@H](CC(=O)O)C(=O)O[C@@H]1C,cell growth or viability,MTT,48 h,> 30 µg/mL
CNC(=O)c1cc(Oc2ccc(NC(=O)c3ccc(-c4cccc(OC(=O)CCC(=O)OC5OC6OC7(C)CCC8C(C)CCC(C5C)C68OO7)c4)cn3)cc2)ccn1 (centres unmarked),cell growth or viability,MTT,72 h,4.49 µM
Cc1ccc2nc(C)c(C(=O)NCc3ccc(C(F)(F)F)cc3)n2c1,cell growth or viability,,,> 25 µM
CC(C)=CCC[C@@](C)(O)[C@H]1CC[C@]2(C)[C@@H]1CC[C@@H]1[C@@]3(C)CCC(=O)C(C)(C)[C@@H]3CC[C@]12C,cell growth or viability,SRB,,25.6 µM
CCc1ccc([C@@H]2C[C@H](C(F)(F)F)n3ncc(C(=O)NCc4ccc(OC)cc4)c3N2)cc1,cell growth or viability,ATP luminescence,48 h,38 µM
O=C(Nc1nc2c(ncn2C2OC(COP(=O)(O)O)C(O)C2O)c(=O)[nH]1)c1ccccc1 (centres unmarked),cell growth or viability,,,> 100 µM
COc1ccc2nc(C)cc(OCC(=O)Nc3ccccc3OC)c2c1,cell growth or viability,ATP luminescence,48 h,> 50 µM
CNC(=O)c1cc(Oc2ccc(NC(=O)c3cc(-c4cccc(COC(=O)CCC(=O)OC5OC6OC7(C)CCC8C(C)CCC(C5C)C68OO7)c4)ccn3)cc2)ccn1 (centres unmarked),cell growth or viability,MTT,72 h,9.93 µM
CNc1nc(SC)nc2ccccc12,cell growth or viability,ATP luminescence,48 h,> 50 µM
O=P(O)(O)Oc1ccc(Oc2ccc(S(=O)(=O)CC3CS3)cc2)cc1 (racemic),cell growth or viability,XTT,,140 µM
